Measurements of several laboratories.
Numbered parts are unrelated; each lists some results of a single study.
Chain of UniProt P21802 (whole entry, looked up): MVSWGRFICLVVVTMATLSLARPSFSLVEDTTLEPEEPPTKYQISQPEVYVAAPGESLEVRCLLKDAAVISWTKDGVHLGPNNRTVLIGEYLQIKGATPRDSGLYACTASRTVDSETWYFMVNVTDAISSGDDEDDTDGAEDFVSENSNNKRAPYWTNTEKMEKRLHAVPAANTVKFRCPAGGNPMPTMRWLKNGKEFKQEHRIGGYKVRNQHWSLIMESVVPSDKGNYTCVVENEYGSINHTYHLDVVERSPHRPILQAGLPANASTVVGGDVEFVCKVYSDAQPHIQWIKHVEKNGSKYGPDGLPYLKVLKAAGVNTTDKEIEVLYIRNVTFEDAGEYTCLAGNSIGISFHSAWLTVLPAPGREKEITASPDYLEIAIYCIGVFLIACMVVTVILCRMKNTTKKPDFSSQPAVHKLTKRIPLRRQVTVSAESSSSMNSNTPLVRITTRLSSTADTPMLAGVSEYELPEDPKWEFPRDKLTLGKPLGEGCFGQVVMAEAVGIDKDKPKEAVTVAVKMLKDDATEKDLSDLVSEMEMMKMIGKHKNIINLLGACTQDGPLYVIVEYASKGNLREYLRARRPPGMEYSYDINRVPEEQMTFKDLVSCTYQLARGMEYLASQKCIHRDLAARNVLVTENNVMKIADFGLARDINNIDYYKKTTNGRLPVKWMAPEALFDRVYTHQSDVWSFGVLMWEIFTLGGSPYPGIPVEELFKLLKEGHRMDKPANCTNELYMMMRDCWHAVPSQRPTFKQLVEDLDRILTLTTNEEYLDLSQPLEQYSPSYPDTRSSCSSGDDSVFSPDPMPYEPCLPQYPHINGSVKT
Chain of UniProt O43293 (whole entry, looked up): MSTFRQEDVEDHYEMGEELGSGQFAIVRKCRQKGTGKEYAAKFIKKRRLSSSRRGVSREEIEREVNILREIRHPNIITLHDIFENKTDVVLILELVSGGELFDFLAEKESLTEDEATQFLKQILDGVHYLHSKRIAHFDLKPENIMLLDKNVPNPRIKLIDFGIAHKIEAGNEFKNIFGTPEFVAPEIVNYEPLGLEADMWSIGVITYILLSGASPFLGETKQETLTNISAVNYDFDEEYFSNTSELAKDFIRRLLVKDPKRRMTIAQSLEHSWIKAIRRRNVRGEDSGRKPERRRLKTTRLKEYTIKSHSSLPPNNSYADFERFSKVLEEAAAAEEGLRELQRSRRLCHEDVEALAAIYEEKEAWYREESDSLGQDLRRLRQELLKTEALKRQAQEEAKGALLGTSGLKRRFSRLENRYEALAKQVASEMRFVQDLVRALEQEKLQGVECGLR
Chain of UniProt P21709 (whole entry, looked up): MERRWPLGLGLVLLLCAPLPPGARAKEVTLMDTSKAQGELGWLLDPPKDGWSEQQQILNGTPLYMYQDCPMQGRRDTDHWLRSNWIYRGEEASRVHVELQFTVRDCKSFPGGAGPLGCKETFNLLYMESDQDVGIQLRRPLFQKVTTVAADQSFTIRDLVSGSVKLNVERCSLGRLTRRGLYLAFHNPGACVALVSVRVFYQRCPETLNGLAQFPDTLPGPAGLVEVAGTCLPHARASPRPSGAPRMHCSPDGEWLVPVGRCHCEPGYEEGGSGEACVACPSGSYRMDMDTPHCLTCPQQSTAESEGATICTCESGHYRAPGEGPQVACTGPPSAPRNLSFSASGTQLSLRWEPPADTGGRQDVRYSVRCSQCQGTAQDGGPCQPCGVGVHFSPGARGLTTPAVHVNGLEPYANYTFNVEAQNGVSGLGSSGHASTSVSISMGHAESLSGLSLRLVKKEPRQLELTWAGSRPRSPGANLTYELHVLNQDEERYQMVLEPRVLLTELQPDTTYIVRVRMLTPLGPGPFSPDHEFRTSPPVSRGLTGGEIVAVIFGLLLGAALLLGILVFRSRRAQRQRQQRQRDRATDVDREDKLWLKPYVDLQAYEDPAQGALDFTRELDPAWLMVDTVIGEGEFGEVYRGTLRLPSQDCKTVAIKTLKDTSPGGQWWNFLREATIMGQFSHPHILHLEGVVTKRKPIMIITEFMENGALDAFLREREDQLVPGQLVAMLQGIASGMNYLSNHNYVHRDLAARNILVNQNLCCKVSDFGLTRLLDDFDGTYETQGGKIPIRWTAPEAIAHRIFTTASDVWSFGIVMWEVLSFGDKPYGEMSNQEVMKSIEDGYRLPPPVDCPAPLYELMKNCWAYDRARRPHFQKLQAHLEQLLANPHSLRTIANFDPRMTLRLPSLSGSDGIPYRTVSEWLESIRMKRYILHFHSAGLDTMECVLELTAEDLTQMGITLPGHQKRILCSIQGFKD
Chain of UniProt Q08881 (whole entry, looked up): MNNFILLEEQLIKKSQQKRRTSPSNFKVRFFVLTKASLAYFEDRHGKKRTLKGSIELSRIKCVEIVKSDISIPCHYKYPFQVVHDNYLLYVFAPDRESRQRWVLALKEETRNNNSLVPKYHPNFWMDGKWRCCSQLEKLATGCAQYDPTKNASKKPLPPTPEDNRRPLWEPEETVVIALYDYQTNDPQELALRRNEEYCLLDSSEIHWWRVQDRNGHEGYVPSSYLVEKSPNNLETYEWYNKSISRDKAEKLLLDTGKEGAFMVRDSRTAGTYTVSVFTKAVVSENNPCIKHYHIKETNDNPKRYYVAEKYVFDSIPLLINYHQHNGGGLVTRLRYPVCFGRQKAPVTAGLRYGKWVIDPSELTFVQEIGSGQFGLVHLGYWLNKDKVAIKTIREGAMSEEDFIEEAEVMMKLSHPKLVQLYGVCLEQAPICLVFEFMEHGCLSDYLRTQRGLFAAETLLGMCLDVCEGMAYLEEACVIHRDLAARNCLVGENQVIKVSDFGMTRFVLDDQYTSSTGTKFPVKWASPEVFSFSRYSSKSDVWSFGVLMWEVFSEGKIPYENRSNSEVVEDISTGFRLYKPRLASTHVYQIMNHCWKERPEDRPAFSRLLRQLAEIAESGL
Chain of UniProt Q9P2K8 (whole entry, unmodified, looked up): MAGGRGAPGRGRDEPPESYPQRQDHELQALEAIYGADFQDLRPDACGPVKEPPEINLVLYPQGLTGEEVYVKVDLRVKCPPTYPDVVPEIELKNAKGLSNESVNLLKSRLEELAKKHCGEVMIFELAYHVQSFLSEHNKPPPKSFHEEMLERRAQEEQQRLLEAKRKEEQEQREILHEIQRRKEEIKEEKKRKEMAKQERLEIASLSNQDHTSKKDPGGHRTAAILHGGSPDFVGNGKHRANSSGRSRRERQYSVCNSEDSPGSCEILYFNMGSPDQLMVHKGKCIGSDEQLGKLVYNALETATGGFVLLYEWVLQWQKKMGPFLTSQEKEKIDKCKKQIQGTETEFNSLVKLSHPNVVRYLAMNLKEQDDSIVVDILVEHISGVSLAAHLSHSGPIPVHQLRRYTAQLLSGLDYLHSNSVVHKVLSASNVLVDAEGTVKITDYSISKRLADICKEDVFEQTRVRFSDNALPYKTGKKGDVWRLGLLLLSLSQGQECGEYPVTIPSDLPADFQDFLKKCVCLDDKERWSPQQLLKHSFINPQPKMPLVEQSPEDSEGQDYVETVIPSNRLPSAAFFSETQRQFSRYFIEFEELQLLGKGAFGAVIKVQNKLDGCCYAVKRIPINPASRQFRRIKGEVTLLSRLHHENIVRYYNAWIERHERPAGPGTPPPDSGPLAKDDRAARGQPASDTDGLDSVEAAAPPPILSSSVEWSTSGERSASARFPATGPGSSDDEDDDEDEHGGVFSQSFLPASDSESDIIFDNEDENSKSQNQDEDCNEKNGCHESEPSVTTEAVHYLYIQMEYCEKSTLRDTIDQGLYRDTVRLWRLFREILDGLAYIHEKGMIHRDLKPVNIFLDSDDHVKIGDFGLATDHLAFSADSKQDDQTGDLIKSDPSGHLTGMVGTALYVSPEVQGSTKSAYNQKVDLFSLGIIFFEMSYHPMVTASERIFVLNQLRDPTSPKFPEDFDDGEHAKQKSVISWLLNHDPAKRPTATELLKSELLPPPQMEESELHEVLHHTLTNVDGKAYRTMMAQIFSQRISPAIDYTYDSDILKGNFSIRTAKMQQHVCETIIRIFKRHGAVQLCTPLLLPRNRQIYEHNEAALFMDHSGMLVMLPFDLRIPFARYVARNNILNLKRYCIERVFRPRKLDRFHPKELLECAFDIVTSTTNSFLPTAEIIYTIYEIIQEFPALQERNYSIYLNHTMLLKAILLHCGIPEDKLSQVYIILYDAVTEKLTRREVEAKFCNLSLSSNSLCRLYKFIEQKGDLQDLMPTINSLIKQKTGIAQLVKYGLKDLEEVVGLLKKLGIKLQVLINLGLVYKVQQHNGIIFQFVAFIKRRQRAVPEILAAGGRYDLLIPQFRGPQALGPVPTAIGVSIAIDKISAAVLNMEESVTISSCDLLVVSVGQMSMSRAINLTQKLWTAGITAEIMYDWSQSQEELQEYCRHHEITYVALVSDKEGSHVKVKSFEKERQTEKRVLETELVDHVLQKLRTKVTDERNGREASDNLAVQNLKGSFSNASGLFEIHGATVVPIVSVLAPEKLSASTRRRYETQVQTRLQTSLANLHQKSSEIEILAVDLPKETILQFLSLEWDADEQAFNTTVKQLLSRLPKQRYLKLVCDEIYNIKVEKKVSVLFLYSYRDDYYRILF

Block 1 — species: human; matrix: microsomes or S9; tested at: 2 µM; time: 0.5 h
Compound | remaining compound
O=c1[nH]nc2c3c(nc(-c4ccncc4)n12)CCCC3 | 79.6%
O=C(O)COc1ccc(C#Cc2ccc(C(=O)NCc3ccccc3)cc2)cc1 | > 99%
Cc1cc2occ(CC(=O)N3CCOC4(CCCOC4)C3)c2cc1C(C)C (stereo not shown) | 43.1%
c1ccc(N(c2ccccc2)c2nc(N3CCOCC3)nc(N3CCOCC3)n2)cc1 | 36.7%
CNc1ccc(Nc2ccc(Cl)c(C#N)n2)cn1 | 0.0207%
CC(C)n1nc(-c2ccc3nc(N)sc3c2)c2c(N)ncnc21 | > 99%
O=S1(=O)c2ccccc2C(O)C(Cc2ccccc2O)N1Cc1cccnc1 (stereo not shown) | 24.2%

Block 2 — observed: enzyme activity; action: inhibitor; tested at: 1 µM
SMILES: C=CC(=O)N1CCC([C@@H]2CCNc3c(C(N)=O)c(-c4ccc(Oc5ccccc5)cc4)nn32)CC1
target | inhibition
MAK (Homo sapiens, UniProt P20794) | 0%
FLT3 (Homo sapiens, UniProt P36888, N841I) | 35%
STK38L (Homo sapiens, UniProt Q9Y2H1) | 5%
DAPK3 (Homo sapiens, UniProt O43293) | 11%
PIK3C3 (Homo sapiens, UniProt Q8NEB9) | 0%
SBK1 (Homo sapiens, UniProt Q52WX2) | 2%
MAPK3 (Homo sapiens, UniProt P27361) | 3%

Block 3 — observed: cell-free assay; method: competition with immobilised ligand; tested at: 0.1 µM
SMILES: COCCOc1nc(-c2ccc(Cl)nc2)nc2c1CN(C(=O)c1ncn3ccccc13)CC2
target | remaining binding
CDK7 (Homo sapiens, UniProt P50613) | 77%
ITK (Homo sapiens, UniProt Q08881) | 100%
CDK2 (Homo sapiens, UniProt P24941) | 82%
Tyrosine-protein kinase JAK3, JH1 (JAK3, Homo sapiens, UniProt P52333) | 93%
FGFR2 (Homo sapiens, UniProt P21802) | 100%
Tyrosine-protein kinase ABL1, phosphorylated (ABL1, Homo sapiens, UniProt P00519, M351T) | 100%
eIF-2-alpha kinase GCN2, C-terminal kinase domain (EIF2AK4, Homo sapiens, UniProt Q9P2K8, S808G) | 100%
EPHA1 (Homo sapiens, UniProt P21709) | 100%
SRC (Homo sapiens, UniProt P12931) | 95%

Block 4 — observed: enzyme activity; action: inhibitor; tested at: 0.5 µM; baseline: control
Target: Mitogen-activated protein kinase 9 (MAPK9, Homo sapiens, UniProt P45984)
Chain of UniProt P45984 (whole entry, looked up): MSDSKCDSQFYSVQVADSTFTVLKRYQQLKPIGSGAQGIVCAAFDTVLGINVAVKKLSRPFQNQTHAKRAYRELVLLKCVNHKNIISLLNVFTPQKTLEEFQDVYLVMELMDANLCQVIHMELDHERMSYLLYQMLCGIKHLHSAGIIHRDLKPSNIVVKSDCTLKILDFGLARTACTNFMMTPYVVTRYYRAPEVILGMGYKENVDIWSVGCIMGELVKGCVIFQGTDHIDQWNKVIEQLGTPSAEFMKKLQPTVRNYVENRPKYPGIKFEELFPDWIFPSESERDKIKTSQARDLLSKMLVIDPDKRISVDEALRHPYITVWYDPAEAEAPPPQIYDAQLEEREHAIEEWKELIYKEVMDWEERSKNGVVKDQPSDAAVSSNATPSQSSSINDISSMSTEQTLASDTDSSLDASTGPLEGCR
SMILES | remaining activity
Cn1c2ccccc2c2c3c(c4c5ccccc5n(CCC#N)c4c21)CNC3=O | 86%
O=C1NC(=O)C(c2cn(CCCO)c3ncccc23)=C1c1cnccn1 | 100%
Nc1ccc2ncnc(NCCc3ccc(Oc4ccccc4)cc3)c2c1 | 85%
Oc1ccc(-c2nc(-c3ccncc3)c(-c3ccc(F)cc3)[nH]2)cc1 | 93.4%
COc1cc2ncnc(Nc3ccc(F)c(Cl)c3)c2cc1OCCCN1CCOCC1 | 95.5%
O=S(=O)(c1cccc2cnccc12)N1CCCNCC1 | 87%
COc1cc2nccc(Oc3ccc(NC(=S)NC(=O)c4ccccc4C)cc3)c2cc1OC | 82.7%
Nc1ncnc2n[nH]c(Nc3ccc(F)cc3)c12 | 103%
Cc1cccc(-c2[nH]c(C(C)(C)C)nc2-c2ccc3c(c2)OCO3)n1 | 98.2%
N#CC(C#N)=C(N)/C(C#N)=C/c1ccc(O)cc1 | 105%
O=C(Nc1cccc(Nc2cc(Nc3cccc(C(F)(F)F)c3)ncn2)c1)C1CC1 | 98.2%
C#Cc1cccc(Nc2ncnc3cc(OCCOC)c(OCCOC)cc23)c1 | 98.4%
OCC(O)CCON=C1C(c2c(O)[nH]c3ccccc23)=Nc2ccccc21 (stereo not shown) | 44.3%
O=C1NC(=O)C(c2cn(CCCn3ccnc3)c3ccccc23)=C1Nc1ccccc1 | 101%

Excerpt of the above (block 1):
Compound | remaining compound
CC(C)n1nc(-c2ccc3nc(N)sc3c2)c2c(N)ncnc21 | > 99%
c1ccc(N(c2ccccc2)c2nc(N3CCOCC3)nc(N3CCOCC3)n2)cc1 | 36.7%
Cc1cc2occ(CC(=O)N3CCOC4(CCCOC4)C3)c2cc1C(C)C (stereo not shown) | 43.1%
